Measured values collected from several papers.
Compare with care: the assays were run in different laboratories. “And” joins repeats or separate records; there may be more than shown. ± gives the spread as reported.

Structure (SMILES) | assay | system | setting | clearance
CNC(=O)c1cccc(-c2ccc([C@@H](O)[C@H]3O[C@H](CO)[C@@H](O)[C@H](O)[C@@H]3O)c(C)c2)c1 |  | Sprague-Dawley rat, male, plasma | intravenous, 3 mg/kg | 33.8 mL/min/kg and 34.2 mL/min/kg and 36.6 mL/min/kg
NCCOCC(=O)N1CCC[C@H](C(=O)NCc2nc(-c3ccc(C(F)(F)F)cc3)cs2)C1 |  | Sprague-Dawley rat, male, plasma | intravenous, 1 mg/kg | 18 mL/min/kg
CCCC(CCC)NC(=O)c1ccc2c(c1)OCO2 |  | Sprague-Dawley rat, female, plasma | intravenous, 1 mg/kg | 47.2 mL/min/kg
Cc1ccc(S(=O)(=O)n2cc3c4c2C(=O)C(NCc2ccc(Cl)cc2)=CC4=NCC3)cc1 |  | Sprague-Dawley rat, plasma | intravenous, 5 mg/kg, two-compartment model | 0.0333 mL/min/kg and 0.05 mL/min/kg
CCOCC(=O)N1CCC[C@H](C(=O)NCc2nc(-c3ccc(C#N)nc3)cs2)C1 |  | Sprague-Dawley rat, male, plasma | intravenous, 1 mg/kg | 3.9 mL/min/kg
Cc1cc(C(=O)NC(C)(C)COc2cccc3c2C(N)=NS(=O)(=O)N3)cc(C)n1 |  | Sprague-Dawley rats, female, plasma | intravenous, 1 mg/kg | 38.3 mL/min/kg
N=C(N)NCCNC(=O)C1(Nc2ccccc2)CCN(Cc2ccccc2)CC1 |  | Sprague-Dawley rats (male), plasma | intravenous, 2.5 mg/kg | 20 ± 5 mL/min
COc1cc2c3c(n(CCCN4CCOCC4)c(=O)c2cc1OC)-c1cc2c(cc1C3=O)OCO2 |  | Fischer 344 rats, male | intravenous bolus, 12 mg/m^2 | 50.9 L/h/m²
CC(C)(N)COCC(=O)N1CCC[C@H](C(=O)NCc2nc(-c3ccc(C(F)(F)F)cc3)cs2)C1 |  | Sprague-Dawley rat, male, plasma | intravenous, 1 mg/kg | 19 mL/min/kg
Cc1cccc(CNC(=O)c2cn(CCNC(=O)c3ccccc3Sc3c([N+](=O)[O-])ncn3C)c3cc4c(cc3c2=O)OC(F)(F)O4)n1 |  | Sprague-Dawley rat, male, plasma | intravenous, 5 mg/kg | 252 ± 6.52 mL/min/kg
COCC(=O)N1CCC[C@H](C(=O)NCc2nc(-c3ccccc3)cs2)C1 |  | Sprague-Dawley rat, male, plasma | intravenous, 1 mg/kg | 0.36 mL/min/kg
N#C[C@@]12C[C@@H]1[C@@H](n1cnc3c(N[C@@H](C4CCC4)C4CC4)nc(I)nc31)[C@H](O)[C@@H]2O |  | Wistar rats male, plasma | oral, 1.0 mg/kg | 867 mL/min/kg
Cc1nccn1CC1CCc2c(c3ccccc3n2C)C1=O (centres unmarked) |  | male Sprague Dawley rat, plasma | iv bolus, 5 mg/kg, with: tariquidar 15 mg/kg iv | 61.7 mL/min/kg
Cc1nc(-c2cnc(NC(C)C)n(C)c2=O)ccc1Oc1ccnc(-c2cnn(C)c2)c1 |  | Sprague-Dawley rat, male, plasma | intravenous, 1 mg/kg | 0.5 mL/min/kg
O=C1C[C@@H](c2ccc(O)cc2)Oc2cc(O)cc(O)c21 |  | Sprague-Dawley rat, plasma | intravenous bolus, 1 mg/kg | 7.17 ± 1.2 mL/min
CCC(=O)O[C@]1(C(=O)SCF)[C@H](C)C[C@H]2[C@@H]3C[C@H](F)C4=CC(=O)C=C[C@]4(C)[C@@]3(F)[C@@H](O)C[C@@]21C | three-compartment model | rat, plasma | intravenous, 90 nmol/kg | 183 ± 16.7 mL/min/kg
CN1CC(Oc2cnc(C#N)cc2-c2ccn3nc(NC(=O)C4CC4)cc3c2)C1 |  | rat, Sprague-Dawley, male, plasma | intravenous, 1 mg/kg | 59 mL/min/kg

Repeated from above:
Structure (SMILES) | assay | system | setting | clearance
CCCC(CCC)NC(=O)c1ccc2c(c1)OCO2 |  | Sprague-Dawley rat, female, plasma | intravenous, 1 mg/kg | 47.2 mL/min/kg
Cc1ccc(S(=O)(=O)n2cc3c4c2C(=O)C(NCc2ccc(Cl)cc2)=CC4=NCC3)cc1 |  | Sprague-Dawley rat, plasma | intravenous, 5 mg/kg, two-compartment model | 0.0333 mL/min/kg and 0.05 mL/min/kg
